Published values collected from several papers.
Each numbered part is a random draw from the data of one study; scales do not carry over between parts.

Series 1 — method: universal PBM; molecule type: double-stranded DNA, one strand shown; sample: in vitro; tested at: not given; reading: higher = stronger binding; measurement: E-score
Target: Sal-like protein 4, full length isoform B (SALL4, Homo sapiens, UniProt Q9UJQ4-2, residues 1-616)
Notes: 8-mer, flanks averaged, mean of replicates
Residues (chain): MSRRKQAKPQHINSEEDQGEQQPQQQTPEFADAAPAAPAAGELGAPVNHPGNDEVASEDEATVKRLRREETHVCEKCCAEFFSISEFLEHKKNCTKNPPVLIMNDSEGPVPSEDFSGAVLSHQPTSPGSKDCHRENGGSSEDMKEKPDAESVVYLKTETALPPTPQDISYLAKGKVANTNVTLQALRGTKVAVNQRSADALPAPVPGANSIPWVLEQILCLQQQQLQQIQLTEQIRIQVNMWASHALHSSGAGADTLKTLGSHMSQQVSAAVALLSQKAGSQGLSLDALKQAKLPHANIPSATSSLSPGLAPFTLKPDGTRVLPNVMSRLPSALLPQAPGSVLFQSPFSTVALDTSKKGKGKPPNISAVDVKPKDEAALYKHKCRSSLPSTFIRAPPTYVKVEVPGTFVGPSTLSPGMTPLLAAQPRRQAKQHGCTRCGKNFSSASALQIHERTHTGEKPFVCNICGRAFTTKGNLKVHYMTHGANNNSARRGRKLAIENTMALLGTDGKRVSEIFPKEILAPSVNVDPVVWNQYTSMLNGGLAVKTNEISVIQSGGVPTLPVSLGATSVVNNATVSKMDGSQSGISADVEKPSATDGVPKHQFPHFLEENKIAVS
AGCTAAGG: -0.228
TGTGTCAA: 0.241
CATCACCG: -0.107
GACTGGTA: -0.178
CCTATTTA: 0.197
CATGAGCG: -0.186
GCTTGCAA: 0.143
CGTTTCTA: 0.0733
GGGAGCCA: -0.303
AAGTAAGT: 0.194
CGCTTCCC: -0.133
ACTGGGAT: 0.0515
ATCCATGC: -0.00157
ACTACGAC: -0.102
GATGCGTA: 0.0328
AAGGACGA: -0.0538
CCGCAAGA: -0.101
TGCATGAA: 0.136
GCGGTGAC: -0.17
GACGAACA: 0.0549
TAAATAAA: 0.346
AATTAATA: 0.482
GCGAACAA: 0.162
GAGAGAGC: -0.157
CCTAACAC: -0.0199

Series 2 — method: protein binding microarray; molecule type: double-stranded DNA, one strand shown; sample: in vitro; tested at: not given; baseline: not given; reading: higher = stronger binding; measurement: E-score
Target: Histone acetyltransferase KAT6A, winged helix 1, GST fusion (KAT6A, Homo sapiens, UniProt Q92794, residues 1-85)
Notes: 8-mer, flanks averaged, mean of 2 arrays, mostly near background
Residues (chain): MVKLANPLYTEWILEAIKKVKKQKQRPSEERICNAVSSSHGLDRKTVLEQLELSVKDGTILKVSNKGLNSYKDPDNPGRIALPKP
AGCACTCA: -0.253
AACAAAAT: -0.193
GAATCAGA: -0.209
AGAACAAA: 0.00455
ACTCCCAA: -0.298
GTAGGCGA: -0.046
AGCTGGAG: -0.246
CAGAAGTA: -0.141
CTGACCTC: -0.133
AGGAGTAG: -0.148
ATCACCAC: -0.0216
GCCTTGCC: 0.00668
CAAGATGC: -0.221
CACCGTCA: 0.222
ATCCACGA: -0.12
AGAGCTCC: 0.0393
CCGACCTC: -0.0659
AGAAGAGA: -0.134
AAAATTCG: -0.112
CTCCGTTC: 0.119
GTGAGCTA: -0.219
ATCTCGGC: 0.168
CTTATAAG: 0.0383

Series 3 — method: RNA Bind-n-Seq; molecule type: RNA; sample: in vitro; tested at: not given; notes: RNA with constant flanks, ends assumed; baseline: input RNA pool; reading: higher = stronger binding; measurement: bound/input enrichment
Target: RING finger protein unkempt homolog, zinc fingers 1-6, GST-SBP tag (UNK, Homo sapiens, UniProt Q9C0B0, residues 30-357)
UniProt Q9C0B0, sequence (30-357, looked up): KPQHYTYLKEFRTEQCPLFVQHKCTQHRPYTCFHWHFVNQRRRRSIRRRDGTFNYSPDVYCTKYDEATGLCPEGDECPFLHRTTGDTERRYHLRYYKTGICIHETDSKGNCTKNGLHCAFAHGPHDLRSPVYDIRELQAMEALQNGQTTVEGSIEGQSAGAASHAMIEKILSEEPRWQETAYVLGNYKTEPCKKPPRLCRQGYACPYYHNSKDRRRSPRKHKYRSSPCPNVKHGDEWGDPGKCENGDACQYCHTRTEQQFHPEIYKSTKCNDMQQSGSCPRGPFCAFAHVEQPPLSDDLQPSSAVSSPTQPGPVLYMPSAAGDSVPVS
Shared flanks, not repeated: GGGAGUUCUACAGUCCGACGAUC … CAACAGAGGAUUGAGCAUCA
UGGCUUACCAACUAUUAAACAUUCUACCCUAUAGUAGCUUACAGCAGCUGAGUUUCAUGAUACCGUCCUCACCGUCAUUAAAAUGUUCCUGUUCCCUUUUCACAACUUUUAGAUAAAAGG: 2.78 ratio
UGUUUCUUUCUUGAAAGAAGUGGAGUCUCCUUAUGAAGUCCAUGACUAUACCAGGGCCUAUUCCGGAGAUACUUCCGAGGCCAAGGAGUUUGCCAAGCAGUUCCUUGAACGCCGUGCCAA: 0.1 ratio
UUCAAAGCCUUACGUCGACAGUUGCCAGUGACACGUACUAAGAUCGACUGGAACAAGAUCCUCCGCUACAAGAUUGGCAAAGAGAUGCAGAAUGCAUAAAUGAAAAUUGCAUGAGCAGAU: 0.108 ratio
GGGCACAUCCAGCUGAUGAUCCCUGGAGAGUCGGCUUGCUUCGCGUGUGCGCCACCACUUGCCGUUGCUUCAAAUAUUGAUGAAAAAACCCUGAAACGAGAAGGCGUCUGCGCAGCCAGU: 0.127 ratio
CAUCAACAGUAUGUGCAACGUAUAGAGAAACAGUUUCUUUUGUAUGCCUACUGGACCGGCUCCGGAAUUUUGUCUUCUGUUGGGCUUGGAACAGGGCUGCACACCUUUCUGCUUUAUCUG: 0.126 ratio
GAUGUAGAAAAAUUUUGUAACAGUGUAGUCGAUCUGUAUUCAAAUCUUAGUAAGCCAUUUUCCGACACCGUUUUGUAUAUCUUUAAGUUAACGAGUGCAAUUGGAGCUCAGGGCCCAGCG: 7.83 ratio
GGAGCCAUUGAUGCUGUUCCUGUUGAUGAAAAUCUUUUCACUGGAGAGGAUUUGGAUGAACCCGAAGAAGAAUUAAAUACACUUGAUUUAGAAGAAUGACACCAAACACAUCGCUGAAAA: 0.773 ratio
AAUGGUGAAUCAGGAAAAGAAAUGGAUGACGAUAAAGAUGCAAAUAAAUCUGAAAUAAGCUCCGUGUUUGAGAUUGCGCUGAAGAGAAAUAUGCCUGUCAGUUUUGAGGUUAUUAAAGAA: 0.285 ratio

Series 4 — method: RNA Bind-n-Seq; molecule type: RNA; sample: in vitro; tested at: 365 nM; baseline: no-protein control; reading: higher = stronger binding; measurement: RBNS enrichment (R)
Target: RNA binding protein fox-1 homolog 2, RRM domain, GST-SBP tag (RBFOX2, Homo sapiens, UniProt O43251-10, residues 100-194)
Notes: natural RNA segment, single round, ends assumed
Shared flanks, not repeated: GGGAGUUCUACAGUCCGACGAUC … UGGAAUUCUCGGGUGCCAA
Target sequence (chain): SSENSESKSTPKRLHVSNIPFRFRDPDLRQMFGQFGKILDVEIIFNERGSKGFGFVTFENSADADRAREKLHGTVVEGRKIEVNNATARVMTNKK
CUUAUUUUCCACCAUUUAAAAAUAAUAAACAUGUUUCUUACCACCGUAUGUUCAUAUGGAUAAGACUAAGUCCAAAAAGGUGACUACAUCCAAAUUUAUAUUUCGGGGAA: 0.398
GGUUUUGGUUUGGCUUCUUUUAGUCAGGCUUUCUGAACAUUGAGAUAUCCUGAACUUAGAGCUCUUCAAUCCUAAGAUUUUCAUGAAAAGCCUCUCACUUGAACCCAAAC: 0.605
AAGGCCAAGUGCAGUGGCUCACACCGGUAAUCCCAGCACUUUGGGAGGCCGAGGUGGGAGGAUUGCUUGAGCUCAUGAGUUCAAGACCAGCCUGGGCAACAUAGCGAGAC: 0.668
UUUCCACAAAAUCUGUCCAAAGGAGGCUGGCAGGUAUGGAAGGGUUUGUGGCUGGGGGCAGGAGGGCCCUACCUGAUUGGUGCAACCCUUACCCCUUAGCCUCCCUGAAA: 0.611
UAGCCUGUAUACCAGGCUUUUCCCCACAUUGUCAGGUAGAGCACCAGCUUCCCUGACCGCUGCUGCUCGGGGAGGGCUGGGGCUGGCCGGGGGUCCUGUGGAGGAGUACA: 0.446
UUUCUCUCUAGCAGGCUUGGAGGGAAGGCCUUCUGGUCUACCUGGGAUUUUACAGAGUUUUUGAGAAUGGGUGUGAUUACUGACUUGAAUUAAAAAAGAAUUUGGAGUUA: 0.735
GGUUAAAGUAACUCCUGGCAUUGCCCACCAGGGGGCUGGUGCACCUGCUGACCUCAGGGUCACAGUUGAGUCAUUUGCCAGUUGACGGAGCAAGUUUGACCUUGGUUCUG: 0.354
CAGGGUAGAGAAUUUGCAGGCGGUGCAGACAGACUUUAGCUCCGAUCCACUGCAGAAAGUUGUGUGCUUCAACCACGAUAAUACCCUGCUUGCCACUGGAGGAACAGAUG: 0.586

A few entries again (series 2):
AGGAGTAG: -0.148
ATCACCAC: -0.0216
GCCTTGCC: 0.00668
CAAGATGC: -0.221
